Experimental data gathered from unrelated publications.
A part holds a random share of what one study measured.

Block 1
Target: Prothrombin, mature alpha-thrombin (F2, Homo sapiens, UniProt P00734)
Technique: aptamer microarray, sandwich
Form: DNA with 2'F-ANA
Sample: in vitro
Tested at: 200 nM
Setting: whole 15-mer aptamer, many near background
With: Cy3 exosite-II aptamer, 400 nM
Direction: higher = stronger binding
Measurement: mean fluorescence intensity
Oligonucleotide: GGTTGGTGTGGTTGG
2'F-ANA at 1 2 3 4 5 8 9 11 12: 102 a.u.
2'F-ANA at 1 2 3 4 7 8 10 11 14 15: 52.7 a.u.
2'F-ANA at 2 3 4 5 15: 98.8 a.u.
2'F-ANA at 1 2 5 6 7 10 12 13 14: 48.3 a.u.
2'F-ANA at 3 5 7 8 9 12: 331 a.u.
2'F-ANA at 1 2 5 7 8 9 10 11 12: 53.9 a.u.
2'F-ANA at 1 3 5 6 7 11 15: 52.1 a.u.
2'F-ANA at 1 2 3 5 6 7 8 9 11 12 14: 74.7 a.u.
2'F-ANA at 5 7 9 12 13 14: 45.7 a.u.
2'F-ANA at 1 3 5 9 12 13: 92.6 a.u.
2'F-ANA at 1 3 4 5 6 7 11: 52.1 a.u.
2'F-ANA at 2 6 7 8 9 12 13 15: 508 a.u.
2'F-ANA at 1 3 5 9 10 11 12 13 14: 80.2 a.u.
2'F-ANA at 1 4 5 9 10 11 13 14 15: 71.5 a.u.
2'F-ANA at 1 2 3 4 8 11 12: 314 a.u.
2'F-ANA at 3 5 8 15: 144 a.u.
2'F-ANA at 2 3 7 8 9 10 13 14 15: 261 a.u.
2'F-ANA at 1 2 3 6 7 8 10 11 12 15: 399 a.u.
2'F-ANA at 2 3 5 6 8 12 13: 188 a.u.
2'F-ANA at 1 2 4 5 6 12 15: 124 a.u.
2'F-ANA at 2 4 5 6 8 9 12 15: 140 a.u.

Block 2
Target: RNA binding protein fox-1 homolog 2, RRM domain, GST-SBP tag (RBFOX2, Homo sapiens, UniProt O43251-10, residues 100-194)
Technique: RNA Bind-n-Seq
Form: RNA
Sample: in vitro
Tested at: 365 nM
Setting: natural RNA segment, single round, ends assumed
Baseline: no-protein control
Direction: higher = stronger binding
Measurement: RBNS enrichment (R)
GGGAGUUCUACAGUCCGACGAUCAUAGAGAAGCCAUGGUUUCUGCUUCUCUCCAGGAGUCAGGCUUGCCACUCCAGCUGGGCCGGUGUGCAGUGGGCCAGGGUCCUCACCUGCCUUGCAGACCCUGGUUCCCGUGGAAUUCUCGGGUGCCAA: 1.64
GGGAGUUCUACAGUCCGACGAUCCAUGAGCCAUUAUCUAGGAUACUUUCUCUCUCUUUCAUGCAGUUCAAAGCCCAGGUAUCUCUCAGAUCUGCUGCCUGAGAAAUAAGCUCCUUUAUCAGUUAGCUGUUUUAUGGAAUUCUCGGGUGCCAA: 0.409
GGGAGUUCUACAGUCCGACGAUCACAAGGAGAGGAGCUUGCUAAAGUUUAAAGUUUAUUUCAACGCUAAGAUCCCAACCUUCCGAUCUCUGCCUACUCUCAGACUUGGCCAGCCCUCUUGCCUGUCAUCCCAAUGGAAUUCUCGGGUGCCAA: 0.37
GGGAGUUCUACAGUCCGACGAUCUGCUGCCUGGGCUUGCUCAGGUCCCCACUAAUAUUUUAAUGUGCCAAUGCCUGUGGAGAGUCUACAGGCCUAAGUGGCGGCCAUCUCAGUAAAGAUAUGGGCCAAGGAUAUGGAAUUCUCGGGUGCCAA: 0.414
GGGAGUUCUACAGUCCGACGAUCUGUGGGACCCUGGCCAAGUGCAGGAAUGGGCCAUGCCGUCUCACCCACAGUAUCACACGUGGAACCGCAGACAGGGCCCAGAAGCUUUAGAGGUAUGAGGCUGCAGAACCUGGAAUUCUCGGGUGCCAA: 0.373
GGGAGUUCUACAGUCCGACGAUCUGUCUCAUGUUUUAUAUGAUUAAAUUAUCAUUGUUUGUCCUUUAUGUAUUCUCUUCUACAAUACAACACAUUGAAACUGUAUUUACUUGUUAUGUUGUAAUAUUUUGCUGUGGAAUUCUCGGGUGCCAA: 0.954
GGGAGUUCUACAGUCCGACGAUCUAAUAGACUUAUUUAAUAUUAAUUCCUAAACUUUGCACUGUCAAUCCUCUGCUGAGUUGUGGGAGGCAGACCUCAGUUUGCUUGUUUUUUGUGAAAGCUAACUUUAUGAUUGGAAUUCUCGGGUGCCAA: 0.562
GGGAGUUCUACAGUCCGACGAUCGUAGCUCAGUCAUAUUGAACAGGGAGGUGGGGAUGCUGUUGAUGGGCUGUUAAAUCGGAAAGGAUGUGGCUUCAGUGCCCUCAGGAACCCUUAGGCUCCAAAAAUUUGCCUGGAAUUCUCGGGUGCCAA: 1.32

Block 3
Target: Protein C-ets-1 (ETS1, Homo sapiens, UniProt P14921, residues 1-441, full length assumed)
Technique: protein-binding microarray
Form: double-stranded DNA, one strand shown
Sample: in vitro
Tested at: not given
Setting: k-mer, scored over probes, only values ≥0.25
Direction: higher = stronger binding
Measurement: E-score
Construct (chain): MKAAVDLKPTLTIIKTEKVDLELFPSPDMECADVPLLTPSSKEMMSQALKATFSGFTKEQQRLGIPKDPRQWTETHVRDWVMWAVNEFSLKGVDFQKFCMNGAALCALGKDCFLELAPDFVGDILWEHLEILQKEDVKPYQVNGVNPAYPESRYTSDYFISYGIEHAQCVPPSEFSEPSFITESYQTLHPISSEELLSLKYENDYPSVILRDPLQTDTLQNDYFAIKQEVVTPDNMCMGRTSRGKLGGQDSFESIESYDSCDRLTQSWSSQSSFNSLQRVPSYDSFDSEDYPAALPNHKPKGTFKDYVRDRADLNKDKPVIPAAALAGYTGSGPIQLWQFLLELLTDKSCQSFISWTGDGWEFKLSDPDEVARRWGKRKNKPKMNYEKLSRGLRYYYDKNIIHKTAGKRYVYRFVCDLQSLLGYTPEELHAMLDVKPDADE
GAGTTTCC: 0.379
ACCGGGAG: 0.35
ACTCGGAA: 0.258
GCCGGGAA: 0.359
CGCATCCC: 0.29
ACTACCGG: 0.415
ACCGGCGG: 0.319
GAGGATGC: 0.322
CGGTACCG: 0.386
AGGGCGGA: 0.364
GTCCGGCA: 0.332
CTGACTTC: 0.324
CCCAGTTC: 0.261
GGAAGACA: 0.298
CCATATCC: 0.379
CCAGCGGA: 0.295
ACGGATGC: 0.445
AATTTCCG: 0.482
CCCGGGAA: 0.338
GCGTATCC: 0.266
ACTTCCGA: 0.462
GGAAGCCC: 0.252
TACGGGAA: 0.28
ATCCGTTG: 0.365
AAGGGATG: 0.337

Block 4
Target: TAR DNA-binding protein 43, full length, His tag (TARDBP, Homo sapiens, UniProt Q13148, residues 1-414)
Technique: RNA Bind-n-Seq
Form: RNA
Sample: in vitro
Tested at: 20 nM
Setting: 6-mer, flanks averaged, single round
With: 150 mM LiCl
Baseline: input library
Direction: higher = stronger binding
Measurement: 6-mer enrichment (R)
GAUGGU: 1.11
GUUAGC: 0.972
UCAGAA: 0.825
AACAGC: 0.823
GAAUUA: 0.906
GGGCCC: 1.14
UGGCGA: 1
GCGCGG: 1.16
AUUUGG: 1.14
UCGGCA: 0.921
UAACUU: 0.912
GGAAUG: 1.14
CCAAGA: 0.822
AUAUGA: 0.924
AGUGAC: 0.909
GAUAGG: 1.06
AUAGUA: 0.945
AUUAAG: 0.921

A few entries again (block 4):
GAUGGU: 1.11
GUUAGC: 0.972
UCAGAA: 0.825
AACAGC: 0.823
GAAUUA: 0.906
GGGCCC: 1.14
UGGCGA: 1
GCGCGG: 1.16
AUUUGG: 1.14
UCGGCA: 0.921
UAACUU: 0.912
GGAAUG: 1.14
